{"data": "Results from different studies", "note": "Protocols differ between the studies behind these lines. Several values in a cell are separate wells, animals, samples, runs or records. ± marks the error that the study gave."}
{"Structure (SMILES)": "O=C(NCc1ccccc1Cl)C1CCCN(Cc2cccc(-c3ccc(F)cc3F)c2)C1 (stereo not shown)", "cell line": "Vero-E6", "test": "CellTiter-Glo ATP", "setting": "concentration not given, 72 h, first round 5-point", "scale": "baseline: DMSO 0%, hyamine -100%, more negative, more toxic", "quantity": "cytotoxicity efficacy", "result": "-11.4%"}
{"Structure (SMILES)": "CCN(N=O)C(N)=O", "cell line": "HepaRG", "setting": "maximum tested, 24 (unit not given)", "quantity": "micronucleated cells", "result": "2%"}
{"Structure (SMILES)": "Brc1ccc(-c2nn3c(Cn4nnc5ccccc54)nnc3s2)cc1", "cell line": "HEp-2", "test": "cytotoxicity", "quantity": "CC50", "result": "> 100 µM"}
{"Structure (SMILES)": "c1ccc(CCNC2CCCc3c2oc2ccc(-c4ccccc4)cc32)cc1 (stereo not shown)", "cell line": "A549", "setting": "50 µM, 23 h", "quantity": "non-viable cells", "result": "5.9 ± 7.8%"}
{"Structure (SMILES)": "Cc1nc2ccccc2n1Cc1nnc2sc(-c3cccnc3)nn12", "cell line": "HEp-2", "test": "cytotoxicity", "quantity": "CC50", "result": "60.7 µM"}
{"Structure (SMILES)": "[Cl][Cd][Cl]", "cell line": "HepaRG", "setting": "concentration not given, highest tested concentration", "scale": "baseline: vehicle", "quantity": "micronucleus fold increase", "result": "0.8 fold"}
{"Structure (SMILES)": "CC(C)C[C@@H](NC(=O)[C@H](N)CCCCN)C(=O)N[C@H](CC(C)C)C(=O)N[C@H](Cc1ccccc1)C(=O)N[C@H](Cc1ccccc1)C(=O)N[C@H](C)C(=O)N[C@H](CCC(=O)O)C(N)=O", "cell line": "NGF-differentiated PC-12 neurons", "setting": "40 µM, 24 h", "scale": "baseline: untreated", "quantity": "viability", "result": "99.6%"}
{"Structure (SMILES)": "CCCCCCCCC[C@@H]1CC(=O)NCC(=O)N[C@H](Cc2ccc(O)cc2)C(=O)NCC(=O)N[C@@H](Cc2ccccc2)C(=O)O1", "cell line": "BV-2 mouse microglia", "test": "ELISA", "system": "culture supernatant", "setting": "5 µM, added: LPS", "quantity": "soluble TLR2 level", "result": "increased"}
{"Structure (SMILES)": "Oc1ccc(C2(c3ccc(O)cc3)c3ccccc3-c3ccccc32)cc1", "cell line": "HepG2 spheroids", "test": "annexin V-FITC/PI flow cytometry", "setting": "0.01 µM, 96 h", "quantity": "necrotic cells", "result": "39.9 ± 24.9%"}
{"Structure (SMILES)": "COc1cccc2c1C(=O)c1c(O)c3c(c(O)c1C2=O)C[C@@](O)(C(=O)CO)C[C@@H]3O[C@H]1C[C@H](N)[C@H](O)[C@H](C)O1", "cell line": "human gingival fibroblasts", "test": "MTS", "setting": "5 µM", "quantity": "cytotoxicity", "result": "not toxic"}
{"Structure (SMILES)": "CC(C)C[C@@H](NC(=O)[C@H](N)CCCCN)C(=O)N[C@H](CC(C)C)C(=O)N[C@H](Cc1ccccc1)C(N)=O", "cell line": "NGF-differentiated PC-12 neurons", "setting": "160 µM, 24 h", "scale": "baseline: untreated", "quantity": "viability", "result": "92.2%"}
{"Structure (SMILES)": "Cc1cnnc(Nc2ccnc3ccc(-c4ccc(S(=O)(=O)N5CCOCC5)cc4)cc23)c1", "cell line": "NIH 3T3", "test": "cytotoxicity, PrestoBlue", "setting": "96 h, 2% FBS", "quantity": "TC50", "result": "> 20 µM"}
{"Structure (SMILES)": "Cc1ccc2nc(C3CCCN(Cc4cccc(-c5cccnc5)c4)C3)[nH]c(=O)c2c1 (stereo not shown)", "cell line": "Vero-E6", "test": "CellTiter-Glo ATP", "setting": "concentration not given, 72 h, retest 8-point duplicates", "scale": "baseline: DMSO 0%, hyamine -100%, more negative, more toxic", "quantity": "cytotoxicity efficacy", "result": "0%"}
{"Structure (SMILES)": "C[C@H]1CCC/C=C/[C@@H]2C[C@H](O)C[C@H]2[C@H](O)/C=C/C(=O)O1", "cell line": "differentiated THP-1", "setting": "72 h", "scale": "baseline: THP-1 CC50 over EC50", "quantity": "selectivity index", "result": 1}
{"Structure (SMILES)": "CC(C)C[C@H](NC(=O)[C@H](C)NC(=O)[C@@H](NC(=O)[C@H](CCCNC(=N)N)NC(=O)[C@H](CC(C)C)NC(=O)[C@H](Cc1c[nH]c2ccccc12)NC(=O)[C@@H]1CCCN1C(=O)[C@@H](N)CCCCN)C(C)C)C(=O)N[C@@H](CS)C(=O)N1CCC[C@H]1C(=O)NCC(=O)O", "cell line": "HEp-2", "test": "WST-1", "setting": "4 µM, 24 h", "quantity": "viability", "result": "105% and 104% and 92.1%"}
{"Structure (SMILES)": "CC(C)C[C@@H](NC(=O)[C@H](N)CCCCN)C(=O)N1CCC[C@@H]1C(=O)N[C@H](Cc1ccccc1)C(=O)N[C@H](Cc1ccccc1)C(=O)N[C@H](C)C(N)=O", "cell line": "NGF-differentiated PC-12 neurons", "setting": "80 µM, 24 h", "scale": "baseline: untreated", "quantity": "viability", "result": "91.8%"}
{"Structure (SMILES)": "COc1ccc2c(Sc3ccc(Cl)cc3)c(C(=O)NCCCN3CCCCC3)[nH]c2c1", "cell line": "Vero-E6", "test": "CellTiter-Glo ATP", "setting": "concentration not given, 72 h, second round 5-point", "scale": "baseline: DMSO 0%, hyamine -100%, more negative, more toxic", "quantity": "cytotoxicity efficacy", "result": "11.5%"}
{"Structure (SMILES)": "O=c1ccc2ccccc2o1", "cell line": "HepaRG 3D spheroids", "test": "DNA structure", "setting": "72 h, high-content imaging", "quantity": "point of departure", "result": "866 µM"}
{"Structure (SMILES)": "CC(=O)O[C@H]1CC[C@]2(C)[C@H]3CC[C@]4(C)Oc5cc(C)oc(=O)c5C[C@H]4[C@]3(C)CC[C@H]2C1(C)C", "cell line": "Calu-3", "setting": "50 µM", "quantity": "cytotoxicity", "result": "0%"}
{"Structure (SMILES)": "CC(C)C[C@@H](N)C(=O)N[C@H](Cc1ccccc1)C(=O)N[C@H](Cc1ccccc1)C(=O)N[C@H](C)C(=O)N[C@H](CCC(=O)O)C(N)=O", "cell line": "NGF-differentiated PC-12 neurons", "setting": "10 µM, 24 h", "scale": "baseline: untreated", "quantity": "viability", "result": "81.6%"}
{"Structure (SMILES)": "NCCc1ccc(O)cc1", "cell line": "HCT-8 infected with Cryptosporidium parvum", "test": "Hoechst nuclei count", "setting": "1 mM, 24 h", "scale": "baseline: PBS", "quantity": "host cell number", "result": "1.05 ± 0.036"}
{"Structure (SMILES)": "CCCCCCCCCCCC[N+](C)(C)Cc1ccccc1.[Br-]", "cell line": "PC-12", "test": "CCK-8", "setting": "10 µM, light-degraded residues of compound, added: sunlight 100 mW/cm^2 for 4 h", "quantity": "cell viability", "result": "~40%"}
{"Structure (SMILES)": "COc1ccc(Nc2nn3c(-c4ccccc4)ccnc3c2C(=O)Nc2ccccc2)cc1", "cell line": "WI-38", "test": "MTT", "system": "serum-free medium", "setting": "125.00 µg/mL, 48 h", "quantity": "viability", "result": "70.8%"}
{"Structure (SMILES)": "Oc1ccccc1-c1nc(-c2cccs2)c(-c2cccs2)[nH]1", "cell line": "Vero-E6", "test": "CellTiter-Glo ATP", "setting": "concentration not given, 72 h, first round 5-point", "scale": "baseline: DMSO 0%, hyamine -100%, more negative, more toxic", "quantity": "cytotoxicity efficacy", "result": "-16.9%"}
{"Structure (SMILES)": "CC(C)C[C@@H](NC(=O)[C@H](N)CCCCN)C(=O)N[C@H](CC(C)C)C(=O)N[C@H](Cc1ccccc1)C(=O)N[C@H](Cc1ccccc1)C(N)=O", "cell line": "NGF-differentiated PC-12 neurons", "setting": "160 µM, 24 h", "scale": "baseline: untreated", "quantity": "viability", "result": "99%"}
{"Structure (SMILES)": "O=S(=O)(c1ccc(-c2ccc3nccc(Nc4nnc(C5CC5)s4)c3c2)cc1)N1CCOCC1", "cell line": "NIH 3T3", "test": "cytotoxicity, PrestoBlue", "setting": "96 h, 2% FBS", "quantity": "TC50", "result": "> 20 µM"}
{"Structure (SMILES)": "CN(CCC=C1c2ccccc2CCc2ccccc21)N=O", "cell line": "TK6", "setting": "5 µM, 4 h, added: hamster liver S9", "scale": "baseline: vehicle", "quantity": "relative survival", "result": "51.9%"}
{"Structure (SMILES)": "CC(C)C[C@@H](N)C(=O)N1CCC[C@@H]1C(=O)N[C@H](Cc1ccccc1)C(=O)N[C@H](Cc1ccccc1)C(=O)N[C@H](C)C(=O)N[C@H](CCC(=O)O)C(N)=O", "cell line": "NGF-differentiated PC-12 neurons", "setting": "20 µM, 24 h", "scale": "baseline: untreated", "quantity": "viability", "result": "99%"}
{"Structure (SMILES)": "CCCCN(CCCNC(=O)c1cc(Nc2ccc(OC)c(OC)c2)nc2ccccc12)Cc1ccccc1", "cell line": "Vero-E6", "test": "CellTiter-Glo ATP", "setting": "concentration not given, 72 h, second round 5-point", "scale": "baseline: DMSO 0%, hyamine -100%, more negative, more toxic", "quantity": "cytotoxicity efficacy", "result": "0%"}
{"Structure (SMILES)": "CN1CCCN(S(=O)(=O)c2ccc(-c3ccc4ncc(C#N)c(Nc5ccc(OCc6cccc(F)c6)c(Cl)c5)c4c3)cc2)CC1", "cell line": "NIH 3T3", "test": "PrestoBlue", "system": "2% FBS medium", "setting": "96 h", "quantity": "TC50", "result": "24 µM"}
{"Structure (SMILES)": "CC(C)C[C@@H](NC(=O)[C@H](N)CCCCN)C(=O)N[C@H](CC(C)C)C(=O)N[C@H](Cc1ccccc1)C(=O)N[C@H](Cc1ccccc1)C(=O)N[C@H](C)C(N)=O", "cell line": "NGF-differentiated PC-12 neurons", "setting": "10 µM, 24 h", "scale": "baseline: untreated", "quantity": "viability", "result": "98.7%"}
{"Structure (SMILES)": "CCOc1ccc(CN2CCN(Cc3ccc4c(c3)c3ccccc3n4CC)CC2)cc1", "cell line": "Vero-E6", "test": "CellTiter-Glo ATP", "setting": "72 h, second round 5-point", "scale": "baseline: DMSO 0%, hyamine -100%, more negative, more toxic", "quantity": "maximum response", "result": "-23.6%"}
{"Structure (SMILES)": "CC(C)C[C@@H](N)C(=O)N[C@H](CC(C)C)C(=O)N[C@H](Cc1ccccc1)C(=O)N[C@H](Cc1ccccc1)C(N)=O", "cell line": "NGF-differentiated PC-12 neurons", "setting": "5 µM, 24 h", "scale": "baseline: untreated", "quantity": "viability", "result": "65.3%"}
{"Structure (SMILES)": "O=S(=O)(c1ccc(O)cc1)c1ccc(O)cc1", "cell line": "HepG2 spheroids, dissociated", "test": "annexin V-FITC/PI flow cytometry", "setting": "10 µM, 24 h", "quantity": "viable cells", "result": "62.4 ± 9.38%"}
{"Structure (SMILES)": "CN1CCCC2(C1)CN(Cc1cccnc1)c1ccc(C(=O)NCC3CCCCC3)cc12 (stereo not shown)", "cell line": "Vero-E6", "test": "CellTiter-Glo ATP", "setting": "72 h, retest 8-point duplicates", "scale": "baseline: DMSO 0%, hyamine -100%, more negative, more toxic", "quantity": "maximum response", "result": "-3.81%"}
{"Structure (SMILES)": "CC(c1ccccc1)(c1ccc(O)cc1)c1ccc(O)cc1", "cell line": "HepG2 spheroids, dissociated", "test": "annexin V-FITC/PI flow cytometry", "setting": "0.01 µM, 96 h", "quantity": "late apoptotic cells", "result": "29.9 ± 18.5%"}
{"Structure (SMILES)": "COc1cccc(-c2ccc(CN3CCCC(c4nc5ccc(C)cc5c(=O)[nH]4)C3)cc2)c1 (stereo not shown)", "cell line": "Vero-E6", "test": "CellTiter-Glo ATP", "setting": "concentration not given, 72 h, retest 8-point duplicates", "scale": "baseline: DMSO 0%, hyamine -100%, more negative, more toxic", "quantity": "cytotoxicity efficacy", "result": "-51.6%"}
{"note": "For quick reference, copied from above:"}
{"Structure (SMILES)": "CC(C)C[C@@H](NC(=O)[C@H](N)CCCCN)C(=O)N[C@H](CC(C)C)C(=O)N[C@H](Cc1ccccc1)C(N)=O", "cell line": "NGF-differentiated PC-12 neurons", "setting": "160 µM, 24 h", "scale": "baseline: untreated", "quantity": "viability", "result": "92.2%"}
{"Structure (SMILES)": "Cc1cnnc(Nc2ccnc3ccc(-c4ccc(S(=O)(=O)N5CCOCC5)cc4)cc23)c1", "cell line": "NIH 3T3", "test": "cytotoxicity, PrestoBlue", "setting": "96 h, 2% FBS", "quantity": "TC50", "result": "> 20 µM"}
{"Structure (SMILES)": "Cc1ccc2nc(C3CCCN(Cc4cccc(-c5cccnc5)c4)C3)[nH]c(=O)c2c1 (stereo not shown)", "cell line": "Vero-E6", "test": "CellTiter-Glo ATP", "setting": "concentration not given, 72 h, retest 8-point duplicates", "scale": "baseline: DMSO 0%, hyamine -100%, more negative, more toxic", "quantity": "cytotoxicity efficacy", "result": "0%"}
{"Structure (SMILES)": "C[C@H]1CCC/C=C/[C@@H]2C[C@H](O)C[C@H]2[C@H](O)/C=C/C(=O)O1", "cell line": "differentiated THP-1", "setting": "72 h", "scale": "baseline: THP-1 CC50 over EC50", "quantity": "selectivity index", "result": 1}
